Published values pooled from the literature.
A part holds a random share of what one study measured.

Set 1 — technique: RNA Bind-n-Seq; form: RNA; sample: in vitro; concentration: 365 nM; baseline: no-protein control; direction: higher = stronger binding
Target: RNA binding protein fox-1 homolog 2, RRM domain, GST-SBP tag (RBFOX2, Homo sapiens, UniProt O43251-10, residues 100-194)
Notes: natural RNA segment, single round, ends assumed
Constant ends, left off below: GGGAGUUCUACAGUCCGACGAUC … UGGAAUUCUCGGGUGCCAA
Target sequence (chain): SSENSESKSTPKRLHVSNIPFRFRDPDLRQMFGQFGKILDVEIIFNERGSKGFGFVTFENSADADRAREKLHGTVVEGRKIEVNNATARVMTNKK
Strand | RBNS enrichment (R)
CAUCAUAUGGAGAAGUUUACAUGGUGAUUGUUCACCUGCAGUACUGUGGAGUUUUAACAUUUUGUCCUCUUUUCAGUGAAACAGAGUAAAAAUAUUCAUCUACCAUUACU | 0.301
GGCCGGCACCUCUGCCCAUCUCCACUCAGGAGUGGUGACUGAGGUUCAUUUAGAAGGGAGCAAAGAGCGUUUUAAACUUUGAAAAGACCACAAAACAAACUGACCCUCCU | 0.225
UACAUUGGUAUCUACAAGACAUUAUAGAGCACCUGAAGUUAUUUUAGCCCUAGGGUGGUCCCAACCAUGUGAUGUCUGGAGCAUAGGAUGCAUUCUUAUUGAAUACUAUC | 0.282
AGUUUAAAGUCAUGUUUUUAAAAUCUUAUUAAAGUUUCAAAAAUCUGAAGAUUGUUUAUCUUAUCUAGAUGUAAAUUUUUAUUAAAAAGUUGCACUUAUGAAAAAGCAAA | 0.733
UAGACACUCAUUUAGUGCCCAGGGAGUCCAGCGAAUGACGUCUGUGGCCAAGCGAGGUCUCAGGUGCAAAGCAAAAGGACCAUUUAAAGUAAAAUAGCUUGGAUUCAAUC | 0.222
CUCUUGAAGGGCUACCUUUUGUUUUAAUUGGUGGUGUACUUUUUUGUAUGUGGAAUUUGUCCCAUGUGCUUGCUAAAAUGUUUGGGGAUCUCCUCACACUGGUAAUGUCU | 1.16
CUUCUCCCUCAGGCAACCCCGACAGACAGUGGCACUCCUGGUCCUGCUGUCUUGGUUUUGUCUUGGCUCUGGGAGGACUCUGAGGGGCAGUGCUCAGUUCAGACAAGGGG | 0.389
CAUUUUUUCCUCUAAUUCAUAACUUACUGAAUUUUUAUGGAAAAUGUCAGCAUCUGUUCUAUCAGUAAGAAAGAGCAGGCAGGACACAUUAAAGGUUCUGUGUCAGCUAU | 0.276
GCUCGGAAGUAGCUCUAGUCCUGCGAGCAGGCACUUGGAACAGCAGUCUGUAAGCAGGAGUCAUUGCCAUGUUGCCCUCCCUGCUGGUGUUACUGUGUUCCCUUAGAGCA | 0.754
CUCUGACCCACGCCCCCUCCUUGUCUGAAAGAAAGGAGCCUUGAAUGGUGGAGGGAGGCAGUGGGGAGAAAGGUCUCACCGGACAGGUUGGGAGAAUGAGGUCAGCGGUG | 1.43
UCAGCCUAGCAGAGCUGAAAGGAGCAGGCUUGGCUUGGUAGAGAGGGGGGCAGAAAGGAGAUAAUCUCAAUGUGUUCUUUCCUGUAUGCCUUGGCUCUAACUCUGCUGCU | 0.685
CUGCUAGACACAGCCAAGGCCAACGAGGCAAGCAGAAGCAGCGGCCGCAGCGAAGCUGCCGUUCAUGUGUUGGAGGCCAAAUGUGGCAAACCAACCCCAGGCCCACCCAG | 0.219

Set 2 — technique: aptamer microarray, sandwich; form: DNA with 2'F-ANA; sample: in vitro; concentration: 200 nM; with: Cy3 exosite-II aptamer, 400 nM; direction: higher = stronger binding; strand: GGTTGGTGTGGTTGG
Target: Prothrombin, mature alpha-thrombin (F2, Homo sapiens, UniProt P00734)
Notes: whole 15-mer aptamer, many near background
Modification | mean fluorescence intensity [a.u.]
2'F-ANA at 1 2 3 4 7 8 10 14 | 48.4
2'F-ANA at 3 4 5 6 7 11 12 14 15 | 56.1
2'F-ANA at 1 2 3 4 6 9 12 14 | 60.5
2'F-ANA at 1 2 3 6 8 9 | 258
2'F-ANA at 1 2 3 7 9 10 11 14 15 | 261
2'F-ANA at 3 4 5 7 8 9 10 12 14 | 61.7
2'F-ANA at 2 5 7 9 10 11 13 15 | 44.9
2'F-ANA at 4 6 11 15 | 189
2'F-ANA at 1 2 6 7 8 9 10 12 14 | 65.2
2'F-ANA at 1 4 5 6 7 8 10 11 12 | 47.8
2'F-ANA at 1 3 4 8 9 12 14 15 | 252
2'F-ANA at 1 2 3 4 5 9 15 | 61.1
2'F-ANA at 1 2 9 12 13 14 15 | 64
2'F-ANA at 2 3 5 6 7 8 9 11 12 13 15 | 119
2'F-ANA at 2 4 7 8 9 11 12 13 14 15 | 121
2'F-ANA at 1 4 6 11 15 | 89.1
2'F-ANA at 2 4 5 10 11 12 13 14 15 | 153
2'F-ANA at 2 3 4 5 6 7 8 11 12 15 | 139
2'F-ANA at 1 2 5 9 10 11 | 49.5
2'F-ANA at 2 5 7 8 9 10 11 12 15 | 52.5
2'F-ANA at 2 8 10 11 12 13 14 | 77.3
2'F-ANA at 1 2 5 9 10 12 | 49.7
2'F-ANA at 1 4 5 8 11 12 13 | 67.4
2'F-ANA at 2 3 4 5 6 9 10 11 14 | 46.9
2'F-ANA at 1 2 4 5 7 9 10 13 | 47.4

Set 3 — technique: protein binding microarray; form: double-stranded DNA, one strand shown; sample: in vitro; concentration: not given; baseline: not given; direction: higher = stronger binding
Target: Histone acetyltransferase KAT6A, winged helix 1, GST fusion (KAT6A, Homo sapiens, UniProt Q92794, residues 1-85)
Notes: 8-mer, flanks averaged, mean of 2 arrays, mostly near background
Target sequence (chain): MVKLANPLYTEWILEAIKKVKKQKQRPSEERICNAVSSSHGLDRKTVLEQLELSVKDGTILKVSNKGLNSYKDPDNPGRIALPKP
Strand | E-score
CATCTGCA | -0.158
CGCGTGCA | 0.238
CAGAACAG | -0.149
CCATTTCG | -0.029
AATTGGCG | 0.0457
CATGTTCA | -0.205
ATTTTACA | -0.204
ATTAGGAC | -0.106
GCTCCCCA | -0.128
AATACGGG | 0.177
TGCGATAA | -0.168
TCGCCCAA | -0.0154
CTCAAAAA | -0.165
AACCCGGC | 0.299
CAACACTG | -0.138
CGTTTTAC | 0.00554
ATGGCCAC | -0.0825
GCCTATCC | 0.00336
ATACGACA | -0.184
ACGAAGGC | 0.0271
GAAGTTGA | -0.212
GGCTCCCA | 0.101
ATCGAGAA | -0.323
ATTCAGGC | -0.0917
AAGACCGA | 0.0979

Set 4 — technique: RNA Bind-n-Seq; form: RNA; sample: in vitro; concentration: 1 µM; notes: whole 134-nt RNA, ends assumed; with: 150 mM KCl; baseline: input library; direction: higher = stronger binding
Target: Ras GTPase-activating protein-binding protein 1, C-terminal RGG region (G3BP1, Homo sapiens, UniProt Q13283)
Chain of UniProt Q13283 (whole entry, looked up): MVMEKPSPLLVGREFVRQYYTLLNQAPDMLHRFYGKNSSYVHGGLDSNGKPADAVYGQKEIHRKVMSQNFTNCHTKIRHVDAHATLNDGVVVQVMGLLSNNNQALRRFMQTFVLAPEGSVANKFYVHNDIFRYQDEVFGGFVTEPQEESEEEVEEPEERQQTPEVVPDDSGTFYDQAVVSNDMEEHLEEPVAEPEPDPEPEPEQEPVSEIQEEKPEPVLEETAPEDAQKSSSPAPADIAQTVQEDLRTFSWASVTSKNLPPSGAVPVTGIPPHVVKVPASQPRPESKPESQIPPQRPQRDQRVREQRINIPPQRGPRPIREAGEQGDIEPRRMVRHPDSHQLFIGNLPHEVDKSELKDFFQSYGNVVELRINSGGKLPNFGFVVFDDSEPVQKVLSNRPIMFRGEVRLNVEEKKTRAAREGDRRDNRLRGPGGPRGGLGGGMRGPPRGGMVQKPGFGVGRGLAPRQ
Constant ends, left off below: GGGAGUUCUACAGUCCGACGAUC … UGGAAUUCUCGGGUGUCAAGG
Strand | log2 enrichment
UGCUUCAUCGCCUUGUGCUCCUGCCCCUGGGAGCUGUGGAUCCCAGAUCCAGAUGACAGCCCACCUUGCUGGCAGGAUGCGCCAAUCCCC | -1.05
GAAGAUUGGCUUAAAAUGGCUACUGUGAUGGGAACAGUGUCUUAGGGAGAUGCAGCUUGGACUUGAGGUAAAUUGAAUACUUUACAACUG | -0.199
UGGCGCUGGUGGCAUGCGGGGAGGAAGAGGUGGCCUCAUGGAUCGUGGUGGUCCCGGUGGAAUGUUCAGAGGUGGCCGUGGUGGAGACAG | 1.59
ACCAUGCAGGUGGGCAUCUUUGGGAAGUGGGGCAAGGGGGGGAUAGGGAGGGGGGUAACACUUUGGGAACAGGUGGUCCCAGGUCGUUUG | 2.17
UGGGAGGUGGAUUUUGUUUAUUUUUUUAGCUCAUUUCCAGGGGUGGGAAUUUUUUUUUAAUAUGUGUCAUGCAUAAAGUUGUUUUUGAAA | 3.52
CCUGUGCUACACAUCGUAUGUACCGAAUCGGGAAAAAAAGGAAAAAAAGGGAAAAAAAGGGAAAGUAUUAUGUUACGCCGUUCGGAUCUG | -1.9
UGGAGAUGACAGAAAUGACUGGUGUGUCGCUGAAACGUGGGGCACUGGUUGUCGAAGAUAAUGACAGUGGAGUCCCAGUUGAAGAGACAA | -2.18
CUCAAGUCCUGUGCUACACAUCGUAUGUACCGAAUCGGAGGUGGAAAAAAAGGAAAGUAUUAUGUUACGCCGUUCGGAUCUGCACUUCCA | -1.41
GAUGAGACAGAUGCUUCAUCAGCAGUGAAAGUGAAAAGAGCAGUCCAGAAAACAUCCGAUUUAAUAGUGUUGGGUCUCCCAUGGAAAACA | -1.08
GUCCUGUGCUACACAUCGUAUGUACCGAAUCAAACCCCCAAAUUUAAACCCCCCCAAAAAAGUAUUAUGUUACGCCGUUCGGAUCUGCAC | -0.75
ACCAUGCAGGUGGGCAUCUUUGGGAAGUGGGGCAAGGGGGGGAUAGCGAGGGGGGUAACACUUUGGGAACAGGUGGUCCCAGGUCGUUUC | 2.1
CCUGUGCUACACAUCGUAUGUACCGAAUCGGGGAAAAAGGGGUUUUUGGGGAAAAAGGGGAAAGUAUUAUGUUACGCCGUUCGGAUCUGC | 0.136
UUGUGGGAGGAUUUUGAGAUACUUAUUCUUUAUUUGAGCCAGUCUUGCAAGGUUAACUUCUCACUGGGCCUAGUGUGGUGCCCAGGUUUU | -1.8
GCCCUGUAAUCGUGGAGAUCCCGCACUUUGCCUCCCAUGGCCGUGGAGACCGCGAGCUCGUGGUUCUGAGGAGCGAAAACGGCUCCGUGU | -2.35

Some of these lines once more (set 1):
Strand | RBNS enrichment (R)
CUUCUCCCUCAGGCAACCCCGACAGACAGUGGCACUCCUGGUCCUGCUGUCUUGGUUUUGUCUUGGCUCUGGGAGGACUCUGAGGGGCAGUGCUCAGUUCAGACAAGGGG | 0.389
UCAGCCUAGCAGAGCUGAAAGGAGCAGGCUUGGCUUGGUAGAGAGGGGGGCAGAAAGGAGAUAAUCUCAAUGUGUUCUUUCCUGUAUGCCUUGGCUCUAACUCUGCUGCU | 0.685
CUCUGACCCACGCCCCCUCCUUGUCUGAAAGAAAGGAGCCUUGAAUGGUGGAGGGAGGCAGUGGGGAGAAAGGUCUCACCGGACAGGUUGGGAGAAUGAGGUCAGCGGUG | 1.43
GGCCGGCACCUCUGCCCAUCUCCACUCAGGAGUGGUGACUGAGGUUCAUUUAGAAGGGAGCAAAGAGCGUUUUAAACUUUGAAAAGACCACAAAACAAACUGACCCUCCU | 0.225
CUCUUGAAGGGCUACCUUUUGUUUUAAUUGGUGGUGUACUUUUUUGUAUGUGGAAUUUGUCCCAUGUGCUUGCUAAAAUGUUUGGGGAUCUCCUCACACUGGUAAUGUCU | 1.16
GCUCGGAAGUAGCUCUAGUCCUGCGAGCAGGCACUUGGAACAGCAGUCUGUAAGCAGGAGUCAUUGCCAUGUUGCCCUCCCUGCUGGUGUUACUGUGUUCCCUUAGAGCA | 0.754
